Experimental data gathered from unrelated publications.
Compare with care: the assays were run in different laboratories. “And” joins repeats or separate records; there may be more than shown. Numbers after ± are the reported error.
UCHL1: Ubiquitin carboxyl-terminal hydrolase isozyme L1 (UCHL1, Homo sapiens, UniProt P09936)
TOP2A: DNA topoisomerase 2-alpha (TOP2A, Homo sapiens, UniProt P11388)
Voltage-dependent P/Q-type calcium channel subunit alpha-1A: Voltage-dependent P/Q-type calcium channel subunit alpha-1A (Homo sapiens, UniProt O00555)
T1: G-quadruplex DNA, intermolecular, 8-nt strands; chain GGAAGGGG; chain GGTTGGGG

SMILES | tested on | test | test system | setting | scale | endpoint | value
CC(C)(C)c1ccc(C(CC(=O)O)NC(=O)c2cc([N+](=O)[O-])ccc2Cl)cc1 (centres unmarked) | UCHL1 | covalent, intact protein LC-MS | – | 12.5 µM | – | labelling | 11.3%
CN(C)C(=O)C(CCN1CCC(O)(c2ccc(Cl)cc2)CC1)(c1ccccc1)c1ccccc1 | Calcium-activated potassium channel subunit alpha-1, with LRRC26 γ1 subunit (KCNMA1, Homo sapiens, UniProt Q12791) | BK current, inside-out patch clamp | excised membrane patch | 0.3 µM, γ1 subunit coexpressed, together with: nominally 0 Ca2+ cytosolic | – | effective gating valence | 1.23 elementary charges
CN(C)CCCSc1nc(-c2ccccc2)nc2c1CCC2 | Trypanosoma cruzi | reporter translation, Renilla luciferase mRNA translation | cell-free extract | 40 µM | reference: DMSO | inhibition | -3.2%
COc1ccc(S(=O)(=O)Oc2ccc(C=O)cc2OC)cc1 | UCHL1 | covalent, intact protein LC-MS | – | 12.5 µM | – | labelling | 12.2%
C[C@@H]1C[C@@]1(C(=O)O)C(=O)NCc1ccc(Cl)c(Cl)c1 | malate dehydrogenase | enzyme activity, inhibitor | – | 200 µM, pH 7.0, 1% DMSO, aggregation counter-screen | – | remaining activity | 91%
O=c1nc(SCc2cc(F)cc(C(F)(F)F)c2)nc(SCc2ccc3sccc3c2)[nH]1 | TOP2A | ATPase activity | – | 1.95 µM, together with: ATP 0.05 mM | – | ATP hydrolysis rate | 0.55 µM/min and 0.643 µM/min
COc1cc(-c2cc(C(C)=O)n3ccccc23)c(OC)cc1Cn1ccnc1 | Bromodomain-containing protein 4, BD2 (BRD4, Homo sapiens, UniProt O60885) | – | – | – | – | ΔTm | 4.1 °C
COc1ccc(C)cc1CN1CCC(c2cc3ncccc3cn2)CC1 | Catenin beta-1, residues 141-305 (CTNNB1, Homo sapiens, UniProt P35222) | ITC | – | 25 °C | – | ΔS | 21.6 cal/mol/K
CC#CC(=O)NC1CCN(C(=O)c2cc(Cl)ccc2F)C1 (centres unmarked) | UCHL1 | covalent, intact protein LC-MS | – | 12.5 µM | – | labelling | 13%
CC12CC3CC(C)(C1)CC(N)(C3)C2 | Voltage-dependent P/Q-type calcium channel subunit alpha-1A | ion current, antagonist | HEK293 | 3 µM | – | inhibition | 34%
CC(Oc1ccccc1)C(=O)NCc1ccccn1 (centres unmarked) | Leucine-rich repeat serine/threonine-protein kinase 2, WD40 domain (LRRK2, Homo sapiens, UniProt Q5S007) | binding, affinity selection mass spectrometry | – | – | reference: other proteins in batch | log fold enrichment | 0.313
COc1cc(C(=O)[O-])cc(COC(=O)N(C)C(=O)c2ccc(N3C(=S)N(c4ccc(C#N)c(C(F)(F)F)c4)C(=O)C3(C)C)cc2F)c1OP(=O)([O-])[O-].[Na+].[Na+].[Na+] | Alkaline phosphatase, placental type (Homo sapiens, UniProt P05187) | substrate | – | 100 µM, pH 7.6, 37 °C | – | drug formation rate | 1.81 pmol/min
Cc1cc2nc3c(=O)[nH]c(=O)nc-3n(C[C@H](O)[C@H](O)[C@H](O)COP(=O)(O)OP(=O)(O)OC[C@H]3O[C@@H](n4cnc5c(N)ncnc54)[C@H](O)[C@@H]3O)c2cc1C | Acyl-coenzyme A oxidase acox-1.1 (acox-1.1, Caenorhabditis elegans, UniProt O62140) | enzyme activity | – | holo enzyme, wild type, together with: cpd in buffers before SEC, no incubation | – | kcat | 1.73 s⁻¹ and 1.49 s⁻¹ and 1.63 s⁻¹
O=C1NC(=O)C(c2ccccc2)(c2ccccc2)N1 | Voltage-dependent P/Q-type calcium channel subunit alpha-1A | ion current, antagonist | HEK293 | 30 µM | – | inhibition | 27%
C=C1C(=O)O[C@@H]2C[C@@]3(C)CCCC(=C)[C@@H]3C[C@H]12 | Thyroid hormone receptor alpha (THRA, Homo sapiens, UniProt P10827) | reporter gene, Gal4 hybrid reporter | – | 10 µM | reference: vehicle | activation | 0.7 fold
O=c1nc(SCc2cc(F)cc(C(F)(F)F)c2)nc(SCc2ccc3nc(Cl)ccc3c2)[nH]1 | TOP2A | DNA cleavage | – | 15.6 µM, replicate 1 | – | linear DNA | 0%
COc1ccc2c(c1)c(CC(=O)O)c(C)n2C(=O)c1ccc(Cl)cc1 | Voltage-dependent P/Q-type calcium channel subunit alpha-1A | ion current, antagonist | HEK293 | 10 µM | – | inhibition | 1%
COC(=O)C(C#N)=Cc1cc(CSc2nnc(N)s2)cs1 | UCHL1 | covalent, intact protein LC-MS | – | 12.5 µM | – | labelling | 14.5%
CC[C@@H](C)[C@@H](NC(=O)[C@@H](Cc1ccc(O)cc1)NC(=O)[C@H]1CCCN1C(=O)[C@@H](CCCNC(=N)N)NC(=O)[C@H](N)Cc1c[nH]cn1)C(=O)N[C@H](C)C(=O)N[C@H](Cc1c[nH]cn1)C(=O)N[C@H](CCCNC(=N)N)C(=O)N[C@@H](C(=O)N[C@H](Cc1ccc(O)cc1)C(=O)N[C@H](CO)C(=O)N[C@H](Cc1ccccc1)C(N)=O)C(C)C | Transferrin receptor protein 1 (Tfrc, Mus musculus, UniProt Q62351) | flow cytometry | DC2.4 | 48 h, pH 7.4, unit not given | reference: 0 h | surface TFRC expression | 0.305

SMILES | tested on | test | test system | setting | scale | endpoint | value
Cc1ccc(C2(F)CC2N)cc1 (centres unmarked) | tyramine oxidase (Arthrobacter sp.) | substrate, Lineweaver-Burk plot | – | – | – | kcat | 0.12 ± 0.01 s⁻¹
O=S(=O)(O)SSS(=O)(=O)O | uncharacterized protein (Pelagibacter ubique, UniProt Q4FMG4) | differential scanning fluorimetry | Candidatus Pelagibacter ubique | in-house screen | – | thermal shift | 5.64 °C
COc1ccc(C2=NN(C(=O)CCl)C(c3cccc(C)c3)C2)cc1 (centres unmarked) | UCHL1 | covalent, intact protein LC-MS | – | 12.5 µM | – | labelling | 24.1%
C=CC1=C(C)C2=Cc3c(C=C)c(C)c4[n]3[Fe]([Cl])[n]3c(c(C)c(CCC(=O)O)c3=CC3=NC(=C4)C(C)=C3CCC(=O)O)=CC1=N2 | T1, G-quadruplex DNA, intermolecular, 8-nt strands | UV-vis titration, Hill fit | – | KCl 100 mM, apparent, together with: hemin 2 µM | – | Kd | 2200 nM
C=CC(=O)N1CCC(COCC(=O)N2CCN(c3nc(-c4cnc(N)nc4C(F)F)nc(N4CCOC[C@@H]4C)n3)CC2)CC1 | Serine/threonine-protein kinase 32A (STK32A, Homo sapiens, UniProt Q8WU08) | KINOMEscan | – | 1 µM | – | remaining binding | 87%
O=C(O)C1=CCNCC1 | BEST1 (Homo sapiens, UniProt O76090) | whole-cell patch clamp | HEK293 transiently expressing channel | concentration not given, membrane potential 40 mV | – | current density | 42.6 pA/pF and 37.5 pA/pF and 18.6 pA/pF and 18.5 pA/pF and 55.6 pA/pF and 13.7 pA/pF
Cc1cc(Oc2ncccc2CN2CCN(CCc3ccccc3)CC2)ccc1-c1c(C)c(=O)[nH]c(=O)n1C | Alpha-2C adrenergic receptor (ADRA2C, Homo sapiens, UniProt P18825) | binding, radioligand binding | – | together with: [3H]rauwolscine | reference: Ki alpha2B over Ki alpha2C | selectivity ratio | 15
Cc1ccc(C2C(C#N)=C(N)N(c3cccnc3Cl)C3=C2C(=O)CCC3)s1 (centres unmarked) | UCHL1 | covalent, intact protein LC-MS | – | 12.5 µM | – | labelling | 12.6%
Cc1c(CC(=O)NCCc2cccc(F)c2)c(=O)oc2cc(O)cc(O)c12 | Beta-1,4-galactosyltransferase 1 (B4GALT1, Homo sapiens, UniProt P15291) | enzyme activity, inhibitor, UDP-Glo | – | 100 µM | lower means stronger inhibition | luminescence | 48400 a.u.
CC[C@@H]1[C@H](F)C(=O)N[C@@H]1COc1nccc2cc(C(N)=O)c(OC)cc12 | Serine/threonine-protein kinase LATS2 (LATS2, Homo sapiens, UniProt Q9NRM7) | ATP-site probe binding, ActivX profiling | THP-1 cell lysate | 0.2 mM, Lys2 site | – | inhibition | 2.1%
O=C(CNc1ccc2ccccc2c1)N/N=C/c1ccc([N+](=O)[O-])o1 | Trypanosoma cruzi | reporter translation, Renilla luciferase mRNA translation | cell-free extract | 40 µM | reference: DMSO | inhibition | -387%
O=C(O)c1cccc(C(=O)O)n1 | Beta-lactamase L1 (Stenotrophomonas maltophilia, UniProt P52700) | enzyme activity, inhibitor | – | together with: nitrocefin | – | koff | 0.00133 ± 0.000333 s⁻¹
COc1ccc(S(=O)(=O)n2nc(NCc3ccc(Cl)cc3)nc2N)cc1 | Lysophospholipase-like protein 1 (Mus musculus, UniProt Q3UFF7) | enzyme activity, activator, gel-based ABPP | purified protein | concentration not given, together with: FP-rhodamine | reference: DMSO | probe labeling increase | 1.1 fold
Nc1ncnc2c1ncn2[C@@H]1O[C@H](COP(=O)(O)CP(=O)(O)OP(=O)(O)O)[C@@H](O)[C@H]1O | P2X purinoceptor 1 (P2RX1, Homo sapiens, UniProt P51575, R292A) | saturation binding | HEK293 | 25 nM | – | specific binding | 49 CCPM and 69.5 CCPM
N#CC(=Cc1ccccc1)C(=O)Nc1nncs1 | UCHL1 | covalent, intact protein LC-MS | – | 12.5 µM | – | labelling | 11.9%
C=CC(=O)N1CCC[C@@H](n2nc(-c3ccc(Oc4ccccc4)cc3)c3c(N)ncnc32)C1 | Ephrin type-A receptor 7 (EPHA7, Homo sapiens, UniProt Q15375) | – | – | 10 µM | – | remaining activity | 60.4%
Cc1cc(C)cc(-c2cc(NC(=O)CCl)n(-c3ccccc3)n2)c1 | UCHL1 | covalent, intact protein LC-MS | – | 12.5 µM | – | labelling | 10.2%
CC(=O)N[C@@H](Cc1c[nH]cn1)C(=O)N[C@@H](CC(=O)O)C(=O)N1CCC[C@H]1C(=O)N1CCC[C@H]1C(=O)N[C@@H](CC(C)C)C(=O)N[C@@H](Cc1c[nH]cn1)C(=O)N[C@@H](CO)C(=O)N[C@H](C(=O)N[C@@H](C)C(N)=O)[C@@H](C)OP(=O)(O)O | Serine/threonine-protein kinase PLK1 (PLK1, Homo sapiens, UniProt P53350) | polo-box domain binding, isothermal titration calorimetry | – | concentration not given, 25 °C | – | binding enthalpy | -14.8 ± 0.09 kcal/mol
O=c1ccc2c(OCCCCOc3ccc(O)cc3)c3ccoc3cc2o1 | Potassium voltage-gated channel subfamily A member 3 (Kcna3, Mus musculus, UniProt P16390) | potassium current, blocker | L929 | – | – | Hill coefficient | 1.6

Repeated from above:
SMILES | tested on | test | test system | setting | scale | endpoint | value
COC(=O)C(C#N)=Cc1cc(CSc2nnc(N)s2)cs1 | UCHL1 | covalent, intact protein LC-MS | – | 12.5 µM | – | labelling | 14.5%
CC[C@@H](C)[C@@H](NC(=O)[C@@H](Cc1ccc(O)cc1)NC(=O)[C@H]1CCCN1C(=O)[C@@H](CCCNC(=N)N)NC(=O)[C@H](N)Cc1c[nH]cn1)C(=O)N[C@H](C)C(=O)N[C@H](Cc1c[nH]cn1)C(=O)N[C@H](CCCNC(=N)N)C(=O)N[C@@H](C(=O)N[C@H](Cc1ccc(O)cc1)C(=O)N[C@H](CO)C(=O)N[C@H](Cc1ccccc1)C(N)=O)C(C)C | Transferrin receptor protein 1 (Tfrc, Mus musculus, UniProt Q62351) | flow cytometry | DC2.4 | 48 h, pH 7.4, unit not given | reference: 0 h | surface TFRC expression | 0.305
Cc1ccc(C2(F)CC2N)cc1 (centres unmarked) | tyramine oxidase (Arthrobacter sp.) | substrate, Lineweaver-Burk plot | – | – | – | kcat | 0.12 ± 0.01 s⁻¹
O=S(=O)(O)SSS(=O)(=O)O | uncharacterized protein (Pelagibacter ubique, UniProt Q4FMG4) | differential scanning fluorimetry | Candidatus Pelagibacter ubique | in-house screen | – | thermal shift | 5.64 °C
